Measured values collected from several papers.
A part holds a random share of what one study measured.

Study 1 — method: aptamer microarray, sandwich; molecule type: DNA with 2'F-ANA; matrix: in vitro; concentration: 200 nM; added: Cy3 exosite-II aptamer, 400 nM; direction: higher = stronger binding; quantity: mean fluorescence intensity; sequence: GGTTGGTGTGGTTGG
Target: Prothrombin, mature alpha-thrombin (F2, Homo sapiens, UniProt P00734)
Notes: whole 15-mer aptamer, many near background
2'F-ANA at 1 4 5 9 10 12 15: 48.4 a.u.
2'F-ANA at 1 3 4 7 8 9 10: 68.9 a.u.
2'F-ANA at 5 6 8 11 13 14: 48 a.u.
2'F-ANA at 5 6 7 10 13 14: 43.7 a.u.
2'F-ANA at 1 5 8 10: 43.8 a.u.

Study 2 — method: RNA Bind-n-Seq; molecule type: RNA; matrix: in vitro; concentration: 1 µM; notes: whole 134-nt RNA, ends assumed; added: 150 mM KCl; relative to: input library; direction: higher = stronger binding; quantity: log2 enrichment
Target: Ras GTPase-activating protein-binding protein 1, C-terminal RGG region (G3BP1, Homo sapiens, UniProt Q13283)
UniProt Q13283, sequence (whole entry, looked up): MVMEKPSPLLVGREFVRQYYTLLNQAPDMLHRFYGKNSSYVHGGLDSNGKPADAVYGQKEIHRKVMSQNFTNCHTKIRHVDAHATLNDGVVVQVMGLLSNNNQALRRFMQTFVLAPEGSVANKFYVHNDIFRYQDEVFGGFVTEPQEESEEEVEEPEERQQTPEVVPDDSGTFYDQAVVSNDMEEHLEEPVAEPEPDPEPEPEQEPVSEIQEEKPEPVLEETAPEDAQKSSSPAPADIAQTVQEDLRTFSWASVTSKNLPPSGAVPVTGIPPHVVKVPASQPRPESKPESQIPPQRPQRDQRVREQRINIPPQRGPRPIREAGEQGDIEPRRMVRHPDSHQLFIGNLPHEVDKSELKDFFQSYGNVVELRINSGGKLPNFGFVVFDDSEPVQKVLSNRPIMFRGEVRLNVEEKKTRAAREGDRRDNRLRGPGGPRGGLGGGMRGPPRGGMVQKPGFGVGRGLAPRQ
All sequences stand within: GGGAGUUCUACAGUCCGACGAUC … UGGAAUUCUCGGGUGUCAAGG
UUUUGCAUUUAGGGUUUUAACCAAGAAGAUCUGGAAGAAGAAAAAGGUGAAACACAGGUAAAAGAAGCAGAAGAUUCAGAUUCUGAUGAU: -2.7
AAGUCCUGUGCUACACAUCGUAUGUACCGAAUCGGGUUUUUGGGUUUUUGGGAGGGAAAGUAUUAUGUUACGCCGUUCGGAUCUGCACUU: 0.243
CUCAAGUCCUGUGCUACACAUCGUAUGUACCGAAUCGGGCCGGCCGGGCCGGGGAAAGUAUUAUGUUACGCCGUUCGGAUCUGCACUUCC: -1.08
UUUCCAAGAAGUGCACUGAAAAUGACAUCCGAGUCAUGUUCUCUUCGUUUGGACAGAUUGAAGAAUGCCGGAUAUUGCGGGGACCUGAUG: -0.378
UCCUCAAGUCCUGUGCUACACAUCGUAUGUACCGAAUCGGAAAGGAGGAGGAAAGUAUUAUGUUACGCCGUUCGGAUCUGCACUUCCAGC: -1.5

Study 3 — method: protein-binding microarray; molecule type: double-stranded DNA, one strand shown; matrix: in vitro; concentration: 0.8 µM; notes: whole 60-bp probe, no competitor; direction: higher = stronger binding; quantity: fluorescence intensity
Target: Centromere-binding protein 1, full length, N-terminal tag (CBF1, Saccharomyces cerevisiae, UniProt P17106, residues 1-351)
UniProt P17106, sequence (whole entry, looked up): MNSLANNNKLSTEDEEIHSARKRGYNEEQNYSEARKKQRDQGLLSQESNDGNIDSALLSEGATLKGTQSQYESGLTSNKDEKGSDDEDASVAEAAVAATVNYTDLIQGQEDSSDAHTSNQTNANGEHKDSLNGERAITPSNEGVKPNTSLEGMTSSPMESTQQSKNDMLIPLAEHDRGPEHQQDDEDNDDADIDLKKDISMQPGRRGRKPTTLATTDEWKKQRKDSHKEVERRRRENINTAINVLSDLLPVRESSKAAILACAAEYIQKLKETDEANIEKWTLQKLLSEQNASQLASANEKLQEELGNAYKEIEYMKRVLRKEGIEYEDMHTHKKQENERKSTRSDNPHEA
GAAAATAGTGATCTGCACGGGTCTTGAGTAGAATAGGTCTTGATTCGCTTGACGCTGCTG: 619 a.u.
TGTACGAAGCTATAACAGCTGATTATAGTAGTTAGGGTCTTGATTCGCTTGACGCTGCTG: 582 a.u.
CTACTAATCAAATGTATCGTGACTGGGTGTTGCTTCGTCTTGATTCGCTTGACGCTGCTG: 1130 a.u.
CTAGCCCTCCTTCGGCACGCGGCTCGGAACATATTCGTCTTGATTCGCTTGACGCTGCTG: 527 a.u.

Other studies, line by line
PhoQ, residues 284 288 289 292 302 303 AQGLTV — fold induction (PhoP, residues 12 14 15 18 19 VQGLL (Escherichia coli, UniProt P23836); Sort-seq, item: YFP reporter; E. coli; PhoQ-PhoP variant library, added: 10 µM Mg2+; relative to: high Mg2+ state, higher = stronger signaling): 1.48

Repeated from above (study 3):
TGTACGAAGCTATAACAGCTGATTATAGTAGTTAGGGTCTTGATTCGCTTGACGCTGCTG: 582 a.u.
CTAGCCCTCCTTCGGCACGCGGCTCGGAACATATTCGTCTTGATTCGCTTGACGCTGCTG: 527 a.u.
